Measured values pooled from the literature.
A part holds a random share of what one study measured.
Sequence of UniProt Q9BRS2 (whole entry, looked up): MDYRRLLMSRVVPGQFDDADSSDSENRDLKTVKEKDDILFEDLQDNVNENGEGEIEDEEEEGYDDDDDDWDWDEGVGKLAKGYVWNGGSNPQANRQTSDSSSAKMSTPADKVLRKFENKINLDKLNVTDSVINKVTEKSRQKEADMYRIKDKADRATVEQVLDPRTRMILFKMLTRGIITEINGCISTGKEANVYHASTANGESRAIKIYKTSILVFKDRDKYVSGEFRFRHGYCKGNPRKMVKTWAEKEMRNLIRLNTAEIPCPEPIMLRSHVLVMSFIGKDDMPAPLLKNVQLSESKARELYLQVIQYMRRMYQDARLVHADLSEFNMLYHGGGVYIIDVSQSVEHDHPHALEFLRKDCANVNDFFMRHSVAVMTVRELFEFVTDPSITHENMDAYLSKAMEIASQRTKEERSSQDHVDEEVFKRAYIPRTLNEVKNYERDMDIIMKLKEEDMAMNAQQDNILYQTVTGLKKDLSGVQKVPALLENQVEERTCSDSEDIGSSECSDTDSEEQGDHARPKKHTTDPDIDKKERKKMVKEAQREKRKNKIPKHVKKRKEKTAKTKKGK
Sequence of UniProt Q96NX5 (whole entry, looked up): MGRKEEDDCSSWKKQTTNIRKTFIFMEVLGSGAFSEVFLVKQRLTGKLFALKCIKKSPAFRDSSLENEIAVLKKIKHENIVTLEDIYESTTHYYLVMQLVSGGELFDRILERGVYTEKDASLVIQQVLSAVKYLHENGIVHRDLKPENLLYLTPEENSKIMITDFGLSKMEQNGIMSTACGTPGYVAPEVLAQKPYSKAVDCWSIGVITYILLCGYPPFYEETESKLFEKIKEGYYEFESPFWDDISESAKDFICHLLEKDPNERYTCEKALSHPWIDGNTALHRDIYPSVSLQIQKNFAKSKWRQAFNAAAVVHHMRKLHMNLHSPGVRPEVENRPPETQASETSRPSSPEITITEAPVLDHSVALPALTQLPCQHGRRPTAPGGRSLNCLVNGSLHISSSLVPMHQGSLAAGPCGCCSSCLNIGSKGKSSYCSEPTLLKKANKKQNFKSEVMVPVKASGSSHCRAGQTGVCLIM
Sequence of UniProt Q8TBX8 (whole entry, looked up): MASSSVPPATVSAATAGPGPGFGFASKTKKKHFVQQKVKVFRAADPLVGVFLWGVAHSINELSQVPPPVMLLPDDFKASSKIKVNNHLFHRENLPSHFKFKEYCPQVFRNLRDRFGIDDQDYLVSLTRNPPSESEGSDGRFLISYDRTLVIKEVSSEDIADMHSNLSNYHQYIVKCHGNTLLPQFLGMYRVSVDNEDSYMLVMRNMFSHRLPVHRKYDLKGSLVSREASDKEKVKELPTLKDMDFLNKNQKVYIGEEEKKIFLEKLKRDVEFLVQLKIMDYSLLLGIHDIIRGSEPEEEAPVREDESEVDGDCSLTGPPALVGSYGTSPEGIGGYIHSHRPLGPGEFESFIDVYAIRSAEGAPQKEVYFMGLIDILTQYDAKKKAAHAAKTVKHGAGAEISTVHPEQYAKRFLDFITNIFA
Sequence of UniProt P41743 (whole entry, looked up): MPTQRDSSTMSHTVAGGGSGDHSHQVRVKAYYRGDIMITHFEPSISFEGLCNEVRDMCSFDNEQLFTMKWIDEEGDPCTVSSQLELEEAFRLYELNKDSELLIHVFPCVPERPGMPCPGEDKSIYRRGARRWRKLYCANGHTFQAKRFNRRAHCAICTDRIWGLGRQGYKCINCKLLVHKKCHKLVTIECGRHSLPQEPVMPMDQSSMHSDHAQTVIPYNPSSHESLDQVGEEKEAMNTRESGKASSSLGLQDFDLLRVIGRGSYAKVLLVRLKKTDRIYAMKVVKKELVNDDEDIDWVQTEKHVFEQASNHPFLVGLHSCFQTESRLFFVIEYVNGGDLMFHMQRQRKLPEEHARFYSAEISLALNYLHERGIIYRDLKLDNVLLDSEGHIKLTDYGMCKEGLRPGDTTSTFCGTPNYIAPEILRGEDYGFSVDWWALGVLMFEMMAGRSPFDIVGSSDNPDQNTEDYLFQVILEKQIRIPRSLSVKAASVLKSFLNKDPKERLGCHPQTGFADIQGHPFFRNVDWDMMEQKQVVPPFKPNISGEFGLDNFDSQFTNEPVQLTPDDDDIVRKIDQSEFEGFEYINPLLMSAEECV
Sequence of UniProt Q13131 (whole entry, looked up): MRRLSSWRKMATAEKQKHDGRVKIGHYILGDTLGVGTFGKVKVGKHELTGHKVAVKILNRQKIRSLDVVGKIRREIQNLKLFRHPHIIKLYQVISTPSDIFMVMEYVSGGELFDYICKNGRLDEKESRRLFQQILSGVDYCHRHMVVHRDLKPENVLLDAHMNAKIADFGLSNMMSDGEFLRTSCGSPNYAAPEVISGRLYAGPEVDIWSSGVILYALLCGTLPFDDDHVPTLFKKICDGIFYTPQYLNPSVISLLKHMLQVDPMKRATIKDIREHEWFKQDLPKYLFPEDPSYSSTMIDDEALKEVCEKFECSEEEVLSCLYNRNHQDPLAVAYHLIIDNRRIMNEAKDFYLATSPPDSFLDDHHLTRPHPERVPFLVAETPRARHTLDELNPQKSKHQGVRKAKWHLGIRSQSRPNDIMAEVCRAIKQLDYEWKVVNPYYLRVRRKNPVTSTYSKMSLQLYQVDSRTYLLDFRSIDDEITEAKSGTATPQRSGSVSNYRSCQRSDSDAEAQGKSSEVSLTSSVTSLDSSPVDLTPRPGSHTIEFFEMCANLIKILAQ
Sequence of UniProt Q9P2K8 (whole entry, unmodified, looked up): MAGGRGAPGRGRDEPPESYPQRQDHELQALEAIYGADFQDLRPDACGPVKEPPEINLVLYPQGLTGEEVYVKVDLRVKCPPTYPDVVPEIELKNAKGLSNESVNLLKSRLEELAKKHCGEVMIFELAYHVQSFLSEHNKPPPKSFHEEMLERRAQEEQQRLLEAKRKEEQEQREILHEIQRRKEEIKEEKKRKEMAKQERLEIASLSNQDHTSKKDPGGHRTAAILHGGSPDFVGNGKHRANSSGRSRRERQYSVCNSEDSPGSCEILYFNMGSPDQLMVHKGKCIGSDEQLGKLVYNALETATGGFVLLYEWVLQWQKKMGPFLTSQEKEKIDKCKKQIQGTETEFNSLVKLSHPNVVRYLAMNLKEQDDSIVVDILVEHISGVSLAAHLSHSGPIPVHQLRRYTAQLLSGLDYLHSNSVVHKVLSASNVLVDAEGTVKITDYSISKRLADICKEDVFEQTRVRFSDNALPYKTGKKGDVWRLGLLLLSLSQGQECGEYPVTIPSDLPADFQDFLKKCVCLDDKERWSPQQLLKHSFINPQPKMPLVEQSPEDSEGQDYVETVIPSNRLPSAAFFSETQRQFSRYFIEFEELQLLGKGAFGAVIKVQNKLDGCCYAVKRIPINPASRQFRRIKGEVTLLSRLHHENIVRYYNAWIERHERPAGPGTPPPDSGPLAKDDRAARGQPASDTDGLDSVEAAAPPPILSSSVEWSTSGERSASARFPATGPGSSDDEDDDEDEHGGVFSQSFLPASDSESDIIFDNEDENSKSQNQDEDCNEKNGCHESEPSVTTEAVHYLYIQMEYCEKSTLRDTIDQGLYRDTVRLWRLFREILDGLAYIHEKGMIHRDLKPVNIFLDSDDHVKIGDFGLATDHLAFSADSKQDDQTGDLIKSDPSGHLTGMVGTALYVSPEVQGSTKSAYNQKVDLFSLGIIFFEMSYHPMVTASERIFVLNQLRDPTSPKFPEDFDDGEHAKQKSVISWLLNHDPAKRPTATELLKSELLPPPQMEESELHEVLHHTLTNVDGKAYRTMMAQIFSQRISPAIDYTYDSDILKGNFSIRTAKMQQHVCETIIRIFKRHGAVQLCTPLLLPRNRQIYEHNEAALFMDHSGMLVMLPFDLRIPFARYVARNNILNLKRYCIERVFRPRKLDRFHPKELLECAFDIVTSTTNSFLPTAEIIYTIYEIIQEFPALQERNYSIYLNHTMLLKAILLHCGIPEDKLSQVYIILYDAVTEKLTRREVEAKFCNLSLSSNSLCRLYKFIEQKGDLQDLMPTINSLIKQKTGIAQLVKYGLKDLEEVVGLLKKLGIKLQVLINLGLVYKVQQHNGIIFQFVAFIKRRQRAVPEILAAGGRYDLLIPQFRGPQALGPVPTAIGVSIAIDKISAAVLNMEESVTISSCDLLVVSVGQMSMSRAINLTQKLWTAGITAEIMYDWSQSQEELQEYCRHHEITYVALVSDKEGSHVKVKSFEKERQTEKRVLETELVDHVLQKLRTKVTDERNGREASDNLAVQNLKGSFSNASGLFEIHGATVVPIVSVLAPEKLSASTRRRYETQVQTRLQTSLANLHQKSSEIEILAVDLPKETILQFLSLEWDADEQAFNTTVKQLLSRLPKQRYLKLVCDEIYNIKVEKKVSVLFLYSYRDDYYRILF
Sequence of UniProt Q07002 (whole entry, looked up): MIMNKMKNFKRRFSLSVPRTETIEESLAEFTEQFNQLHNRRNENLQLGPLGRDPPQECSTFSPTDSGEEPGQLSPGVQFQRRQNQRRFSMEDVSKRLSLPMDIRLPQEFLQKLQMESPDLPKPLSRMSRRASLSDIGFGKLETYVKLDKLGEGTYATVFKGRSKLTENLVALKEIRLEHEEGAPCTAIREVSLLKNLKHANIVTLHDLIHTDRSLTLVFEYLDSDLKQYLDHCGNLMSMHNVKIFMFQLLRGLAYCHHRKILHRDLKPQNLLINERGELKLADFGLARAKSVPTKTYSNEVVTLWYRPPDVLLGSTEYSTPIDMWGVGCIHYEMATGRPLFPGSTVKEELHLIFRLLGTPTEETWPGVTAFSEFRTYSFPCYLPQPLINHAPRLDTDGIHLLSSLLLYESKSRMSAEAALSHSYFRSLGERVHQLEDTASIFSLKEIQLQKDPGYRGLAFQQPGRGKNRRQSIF

Set 1
Species: human
Sample: microsomes or S9
Tested at: 2 µM
Time: 0.5 h
For `CCOC(=O)C(C)(C)Cc1nc(-c2ccc(OCc3ccc(OC)cc3)cn2)no1`, the remaining compound was 0.995%.
For `COc1ccc(NC(=O)c2cc3c(=O)n4cc(C)ccc4nc3n2Cc2ccccc2)c(OC)c1`, the remaining compound was 90.1%.
`Clc1nc(Cl)n(C23CC4CC(CC(C4)C2)C3)n1` gave a remaining compound of 57.5%.
`CC(C)(C)c1cn2c3ccccc3nc2n1CCNC1CCCCC1` has a remaining compound of 29.7%.
The remaining compound of `Cc1ccccc1C1CC(=O)c2c(C)nc(N)nc2C1` (centres unmarked) is reported as 56.8%.
For `CC1CCC(N(Cc2nnc(C3CCC3)n2C)CC2CCCO2)CC1` (centres unmarked), the remaining compound was 38.6%.
For `Cn1c(=O)[nH]c(=O)c2c1nc(NC1CCCCC1)n2CC(=O)NC1CCCCC1`, the remaining compound was 16.1%.

Set 2
Structure (SMILES): O=C(O)c1cc(-c2ccc(C3CCNCC3)cc2)c2ccc(-c3ccc(C(F)(F)F)cc3)cc2c1
Read-out: cell-free assay
Technique: competition with immobilised ligand
Tested at: 1 µM
It gave 80% for remaining binding (Serine/threonine-protein kinase PLK4 (PLK4, Homo sapiens, UniProt O00444)).
It gave 100% for remaining binding (eIF-2-alpha kinase GCN2, C-terminal kinase domain (EIF2AK4, Homo sapiens, UniProt Q9P2K8, S808G)).
Serine/threonine-protein kinase ULK2 (ULK2, Homo sapiens, UniProt Q8IYT8) — remaining binding: 100%.
For Calcium/calmodulin-dependent protein kinase type 1G (CAMK1G, Homo sapiens, UniProt Q96NX5): remaining binding read 100%.
For Activin receptor type-1-like (ACVRL1, Homo sapiens, UniProt P37023): remaining binding read 100%.
The remaining binding was 97% (Mitogen-activated protein kinase 1 (MAPK1, Homo sapiens, UniProt P28482)).
Serine/threonine-protein kinase RIO1 (RIOK1, Homo sapiens, UniProt Q9BRS2) — remaining binding: 100%.
For Phosphatidylinositol 3-kinase C2 domain-containing subunit gamma (PIK3C2G, Homo sapiens, UniProt O75747): remaining binding read 100%.
Serine/threonine-protein kinase 17A (STK17A, Homo sapiens, UniProt Q9UEE5) — remaining binding: 100%.
5'-AMP-activated protein kinase catalytic subunit alpha-1 (PRKAA1, Homo sapiens, UniProt Q13131) — remaining binding: 100%.
It gave 100% for remaining binding (Phosphatidylinositol 5-phosphate 4-kinase type-2 gamma (PIP4K2C, Homo sapiens, UniProt Q8TBX8)).
For Cyclin-dependent kinase 18 (CDK18, Homo sapiens, UniProt Q07002): remaining binding read 100%.
Protein kinase C iota type (PRKCI, Homo sapiens, UniProt P41743) — remaining binding: 82%.

Set 3
Target: Cyclin-dependent kinase 5, with p35 (CDK5, Homo sapiens, UniProt Q00535)
Sequence of UniProt Q00535 (whole entry, looked up): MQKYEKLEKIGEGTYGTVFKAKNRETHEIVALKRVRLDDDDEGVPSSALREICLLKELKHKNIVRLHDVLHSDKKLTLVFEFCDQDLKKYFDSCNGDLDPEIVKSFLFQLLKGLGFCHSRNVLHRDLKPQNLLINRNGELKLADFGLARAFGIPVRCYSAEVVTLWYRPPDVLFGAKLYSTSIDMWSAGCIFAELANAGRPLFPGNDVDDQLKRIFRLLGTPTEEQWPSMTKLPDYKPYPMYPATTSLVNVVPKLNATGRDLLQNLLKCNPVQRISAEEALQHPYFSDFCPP
Read-out: enzyme activity
Mode: inhibitor
Tested at: 0.5 µM
Relative to: control
`COc1cc2c(N3CCN(C(=O)Nc4ccc(OC(C)C)cc4)CC3)ncnc2cc1OCCCN1CCCCC1` has a remaining activity of 99.4%.
`NC(=O)c1ccc(-c2nc(-c3ccc4c(c3)OCCO4)c(-c3ccccn3)[nH]2)cc1` gave a remaining activity of 98%.
For `COc1cc2c(Nc3ccc(Br)cc3F)ncnc2cc1OCC1CCN(C)CC1`, the remaining activity was 107%.
`O=C(O)/C=C/c1cc(Br)c(Br)c(Br)c1Br` gave a remaining activity of 92.4%.
For `N#CC(c1ccnc(NCCc2cccnc2)n1)c1nc2ccccc2s1` (centres unmarked), the remaining activity was 97.2%.
The remaining activity of `c1cc(-c2cnn3cc(-c4ccc(OCCN5CCCCC5)cc4)cnc23)ccn1` is reported as 67.7%.
With `O=C1NC(=O)/C(=C/c2ccc3c(c2)OC(F)(F)O3)S1` the remaining activity was 103%.
With `O=C1c2ccccc2-c2nc3nnnn3nc21` the remaining activity was 79.1%.

Set 4
Cell line: A-375
Tested at: 100 µM
Time: 36 h
With `Cc1ccc(Cl)c(Nc2ccccc2C(=O)O)c1Cl` the viability was 35.3%.
With `CCN1CCN(C(=O)N[C@@H](C(=O)N[C@@H]2C(=O)N3[C@@H]2SC(C)(C)[C@@H]3C(=O)O)c2ccccc2)C(=O)C1=O` the viability was 102%.
`C=CCc1cc(OC)c(O)c(C(=O)NCCO)c1` has a viability of 105%.
`Cc1cc(=O)n(-c2ccccc2)n1C` has a viability of 115%.
The viability of `O=c1[nH]c(=O)n([C@H]2C[C@H](O)[C@@H](CO)O2)cc1F` is reported as 21.4%.
The viability of `CC(C)=CCC/C(C)=C/C=C/C(C)=C/C=C/C(C)=C/C=C/C=C(C)/C=C/C=C(C)/C=C/C=C(\C)CCC=C(C)C` is reported as 95.4%.
With `[H]/N=C(/N)N/C(=N/[H])NCCc1ccccc1` the viability was 63.8%.
